Results from different studies.
Each line is one published result; not all experiments were run side by side. Numbers after ± are the reported error.
AR: Androgen receptor (AR, Homo sapiens, UniProt P10275)
UniProt P10275, sequence (whole entry, looked up): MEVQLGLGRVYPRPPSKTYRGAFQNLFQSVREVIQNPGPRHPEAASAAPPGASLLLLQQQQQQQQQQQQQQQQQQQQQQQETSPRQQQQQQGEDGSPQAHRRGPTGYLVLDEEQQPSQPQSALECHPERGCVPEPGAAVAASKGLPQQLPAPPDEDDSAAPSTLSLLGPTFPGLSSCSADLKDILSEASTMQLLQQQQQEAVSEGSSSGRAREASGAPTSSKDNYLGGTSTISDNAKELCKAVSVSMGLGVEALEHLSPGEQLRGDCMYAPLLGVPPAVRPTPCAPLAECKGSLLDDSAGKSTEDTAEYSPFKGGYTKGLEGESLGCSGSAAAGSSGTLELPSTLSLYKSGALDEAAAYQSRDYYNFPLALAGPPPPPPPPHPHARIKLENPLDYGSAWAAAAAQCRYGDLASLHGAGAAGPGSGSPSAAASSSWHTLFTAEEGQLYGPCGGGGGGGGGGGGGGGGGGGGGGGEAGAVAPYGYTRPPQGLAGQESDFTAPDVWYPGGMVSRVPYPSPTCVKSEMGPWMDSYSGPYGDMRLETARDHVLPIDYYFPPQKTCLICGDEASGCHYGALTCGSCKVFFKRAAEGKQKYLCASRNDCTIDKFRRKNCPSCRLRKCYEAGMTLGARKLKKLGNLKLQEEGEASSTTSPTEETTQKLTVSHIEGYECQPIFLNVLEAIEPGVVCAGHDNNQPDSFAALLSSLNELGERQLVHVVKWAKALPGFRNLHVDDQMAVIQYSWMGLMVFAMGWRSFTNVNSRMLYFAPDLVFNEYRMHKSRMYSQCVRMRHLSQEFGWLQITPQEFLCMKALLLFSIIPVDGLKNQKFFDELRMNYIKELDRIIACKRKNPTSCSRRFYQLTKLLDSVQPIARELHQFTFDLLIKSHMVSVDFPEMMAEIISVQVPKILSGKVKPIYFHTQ
Faah: Fatty-acid amide hydrolase 1 (Faah, Mus musculus, UniProt O08914)
UniProt O08914, sequence (whole entry, looked up): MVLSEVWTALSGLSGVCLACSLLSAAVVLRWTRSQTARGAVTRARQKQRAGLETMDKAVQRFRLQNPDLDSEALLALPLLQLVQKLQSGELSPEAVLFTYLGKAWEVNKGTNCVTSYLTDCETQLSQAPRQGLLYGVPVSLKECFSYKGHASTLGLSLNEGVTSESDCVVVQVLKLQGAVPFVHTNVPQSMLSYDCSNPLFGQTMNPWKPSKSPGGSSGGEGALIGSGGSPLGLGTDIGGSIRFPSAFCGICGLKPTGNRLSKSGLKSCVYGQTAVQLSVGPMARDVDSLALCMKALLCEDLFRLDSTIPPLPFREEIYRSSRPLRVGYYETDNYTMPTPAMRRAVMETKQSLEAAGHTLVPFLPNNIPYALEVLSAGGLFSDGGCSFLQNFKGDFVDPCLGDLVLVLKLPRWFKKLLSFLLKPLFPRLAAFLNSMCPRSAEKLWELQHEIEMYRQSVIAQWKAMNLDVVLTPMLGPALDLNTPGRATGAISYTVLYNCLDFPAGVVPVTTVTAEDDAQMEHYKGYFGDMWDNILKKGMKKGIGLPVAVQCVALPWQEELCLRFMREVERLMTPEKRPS
UniProt Q9GZX7, sequence (whole entry, looked up): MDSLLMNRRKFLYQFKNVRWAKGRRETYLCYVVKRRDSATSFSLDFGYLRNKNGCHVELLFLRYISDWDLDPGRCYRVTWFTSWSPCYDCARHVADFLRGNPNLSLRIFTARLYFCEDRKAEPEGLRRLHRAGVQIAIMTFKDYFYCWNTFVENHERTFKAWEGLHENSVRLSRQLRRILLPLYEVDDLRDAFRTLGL
UniProt O14746, sequence (whole entry, looked up): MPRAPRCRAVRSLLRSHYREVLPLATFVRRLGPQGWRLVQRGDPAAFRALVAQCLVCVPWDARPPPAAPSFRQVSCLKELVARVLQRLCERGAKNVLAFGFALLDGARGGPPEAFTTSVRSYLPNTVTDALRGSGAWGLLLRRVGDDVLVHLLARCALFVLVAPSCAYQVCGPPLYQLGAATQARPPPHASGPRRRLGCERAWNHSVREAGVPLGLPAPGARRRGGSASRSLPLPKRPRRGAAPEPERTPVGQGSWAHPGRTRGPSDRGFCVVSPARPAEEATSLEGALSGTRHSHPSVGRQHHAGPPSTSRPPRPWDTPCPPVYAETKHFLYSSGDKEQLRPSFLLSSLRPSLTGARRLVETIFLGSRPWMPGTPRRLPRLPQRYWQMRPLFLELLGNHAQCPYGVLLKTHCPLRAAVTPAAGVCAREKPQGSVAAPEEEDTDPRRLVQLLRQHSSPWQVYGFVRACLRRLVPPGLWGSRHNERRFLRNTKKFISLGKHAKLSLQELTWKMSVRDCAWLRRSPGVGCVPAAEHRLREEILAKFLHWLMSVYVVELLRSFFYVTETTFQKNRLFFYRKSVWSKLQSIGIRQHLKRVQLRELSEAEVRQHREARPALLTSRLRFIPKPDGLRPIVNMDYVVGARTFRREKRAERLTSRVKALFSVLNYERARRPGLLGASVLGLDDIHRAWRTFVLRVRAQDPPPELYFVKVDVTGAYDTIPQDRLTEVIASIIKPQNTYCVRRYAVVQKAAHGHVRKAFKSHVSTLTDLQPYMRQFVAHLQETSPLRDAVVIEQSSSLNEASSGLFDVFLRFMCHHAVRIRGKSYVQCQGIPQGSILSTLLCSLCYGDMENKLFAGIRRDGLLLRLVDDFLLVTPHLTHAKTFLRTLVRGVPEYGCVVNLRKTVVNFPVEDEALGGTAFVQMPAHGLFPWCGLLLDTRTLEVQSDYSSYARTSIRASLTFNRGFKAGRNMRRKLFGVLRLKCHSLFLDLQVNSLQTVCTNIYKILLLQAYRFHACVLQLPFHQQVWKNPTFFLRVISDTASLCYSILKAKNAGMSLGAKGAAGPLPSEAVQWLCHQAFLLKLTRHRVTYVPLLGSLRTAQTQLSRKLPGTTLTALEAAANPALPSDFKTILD
UniProt Q08345, sequence (whole entry, looked up): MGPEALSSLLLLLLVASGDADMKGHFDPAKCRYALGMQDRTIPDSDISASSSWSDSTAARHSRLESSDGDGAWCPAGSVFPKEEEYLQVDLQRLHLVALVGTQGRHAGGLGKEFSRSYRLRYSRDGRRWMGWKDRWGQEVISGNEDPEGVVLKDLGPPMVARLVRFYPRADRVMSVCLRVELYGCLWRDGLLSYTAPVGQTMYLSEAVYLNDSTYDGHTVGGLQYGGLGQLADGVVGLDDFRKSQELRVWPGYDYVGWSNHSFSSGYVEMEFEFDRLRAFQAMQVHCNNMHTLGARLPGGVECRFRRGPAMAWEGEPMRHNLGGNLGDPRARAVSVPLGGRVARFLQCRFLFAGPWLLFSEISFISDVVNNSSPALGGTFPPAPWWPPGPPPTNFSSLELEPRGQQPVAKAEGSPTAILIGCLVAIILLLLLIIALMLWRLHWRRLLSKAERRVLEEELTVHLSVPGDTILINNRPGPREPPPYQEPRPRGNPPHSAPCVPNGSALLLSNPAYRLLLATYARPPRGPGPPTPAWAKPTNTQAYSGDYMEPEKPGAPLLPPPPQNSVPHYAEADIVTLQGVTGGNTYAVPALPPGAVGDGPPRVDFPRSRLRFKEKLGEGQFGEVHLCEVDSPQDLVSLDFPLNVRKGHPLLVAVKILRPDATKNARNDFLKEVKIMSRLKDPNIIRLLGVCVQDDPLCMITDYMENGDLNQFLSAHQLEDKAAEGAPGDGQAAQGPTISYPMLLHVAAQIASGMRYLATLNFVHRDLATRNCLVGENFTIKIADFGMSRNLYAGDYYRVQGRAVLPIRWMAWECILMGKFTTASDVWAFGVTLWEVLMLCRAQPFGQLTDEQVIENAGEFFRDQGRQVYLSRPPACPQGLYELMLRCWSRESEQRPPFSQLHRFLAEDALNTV

SMILES	target	test	test system	conditions	scale	remaining activity [%]
CCCCCCCCSc1nc2c([nH]1)c(=O)n(C)c(=O)n2C	AR	reporter gene, antagonist, PSA-luciferase	HeLa-A6	10 µM, 24 h, together with: 5 nM dihydrotestosterone	relative to: maximal activity	101
NC(CNC(CNC(CC(=O)O)C(=O)O)C(=O)O)C(=O)O (centres unmarked)	angiotensin-converting enzyme, rabbit			500 µM, 60 min, Zn-depleted buffer		46.9 ± 8.9
CC1(C)COCN1C(=O)n1nnc2c(F)cc(F)cc21	Faah	inhibitor	mouse, liver	oral, 0.1 mg/kg, 8 h after dose	relative to: control	19 ± 9
CN(CC(=O)c1ccc2[nH]c(=O)[nH]c2c1)Cc1ccco1	Single-stranded DNA cytosine deaminase (AICDA, Homo sapiens, UniProt Q9GZX7)	deaminase activity, inhibitor, alkaline cleavage	purified GST-AID	500 to 840 µM, pH 7.2, 37 °C, DMSO 100%		17.4
O=C(Nc1ccc(OC(F)(F)F)cc1)N1CCC(Cc2cccc(Oc3ccc(C(F)(F)F)cn3)c2)CC1	Faah		mice, brain	intraperitoneal, 10 mg/kg, 4 h, vehicle DMSO	relative to: control	22 ± 15
CC1(C)CCN(Cc2ccc(C(=O)NC[C@]3(O)CCCN(c4cc(NCc5ccccc5)ncn4)C3)c(O)c2)CC1	Epithelial discoidin domain-containing receptor 1 (DDR1, Homo sapiens, UniProt Q08345)	kinase activity, radiometric		10 µM, together with: 10 µM ATP		96
CC(C)c1cc2ccc3ccccc3c2oc1=O	Tyrosine-protein kinase SYK (SYK, Homo sapiens, UniProt P43405)	enzyme activity, inhibitor, ADP-Glo		5 µM		86 ± 3.7
CCCCSc1nc2c([nH]1)c(=S)n(C)c(=S)n2C	AR	reporter gene, antagonist, PSA-luciferase	HeLa-A6	10 µM, 24 h, together with: 5 nM dihydrotestosterone	relative to: maximal activity	76
COc1ccc2nnn(C(=O)N3COCC3(C)C)c2c1	Faah	inhibitor	mouse, liver	oral, 0.1 mg/kg, 8 h after dose	relative to: control	39 ± 7
CC(C)CSc1nc2c([nH]1)c(=S)n(C)c(=O)n2C	AR	reporter gene, antagonist, PSA-luciferase	HeLa-A6	10 µM, 24 h, together with: 5 nM dihydrotestosterone	relative to: maximal activity	134
[N-]=[N+]=N[C@H]1C[C@H](n2cnc3c(N)ncnc32)O[C@@H]1COP(=O)(O)OP(=O)(O)OP(=O)(O)O	Telomerase reverse transcriptase (TERT, Homo sapiens, UniProt O14746)	enzyme activity, stretch PCR		10 µM, together with: competing dNTP 10 µM		85

For quick reference, copied from above:
SMILES	target	test	test system	conditions	scale	remaining activity [%]
CC(C)c1cc2ccc3ccccc3c2oc1=O	Tyrosine-protein kinase SYK (SYK, Homo sapiens, UniProt P43405)	enzyme activity, inhibitor, ADP-Glo		5 µM		86 ± 3.7
